Published values pooled from the literature.
Each line is one published result; not all experiments were run side by side.
Target: Histamine H1 receptor (HRH1, Homo sapiens, UniProt P35367)
UniProt P35367, sequence (whole entry, looked up): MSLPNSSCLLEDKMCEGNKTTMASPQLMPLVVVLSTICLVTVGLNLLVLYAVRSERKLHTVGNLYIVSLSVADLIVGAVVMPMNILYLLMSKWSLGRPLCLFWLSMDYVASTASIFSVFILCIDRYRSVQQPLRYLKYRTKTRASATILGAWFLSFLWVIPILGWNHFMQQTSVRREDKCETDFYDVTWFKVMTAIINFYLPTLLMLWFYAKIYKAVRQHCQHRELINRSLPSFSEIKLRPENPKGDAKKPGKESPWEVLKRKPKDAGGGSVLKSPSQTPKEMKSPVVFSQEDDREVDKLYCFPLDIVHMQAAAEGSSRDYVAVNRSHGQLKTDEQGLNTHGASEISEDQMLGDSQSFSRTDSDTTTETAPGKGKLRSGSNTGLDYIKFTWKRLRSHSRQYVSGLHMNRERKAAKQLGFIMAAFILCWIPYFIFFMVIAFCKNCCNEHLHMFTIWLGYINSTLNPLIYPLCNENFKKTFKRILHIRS

| Compound | test | system | setting | inhibition [%] |
| --- | --- | --- | --- | --- |
| COCC(=O)N1CCc2cc(-c3csc(NC(=O)c4cc(OC)cc(OC)c4)n3)ccc21 | cell-free assay |  | 10 µM | 9 |
| Cc1[nH]nc2c1N=C(c1ccccc1Cl)c1cnc(N3CCOCC3)cc1N2 | cell-free assay |  | 10 µM | 1 |
| CO[C@@H](C)c1c(NC(=O)Nc2cnc(-n3nccn3)c(C(F)(F)F)c2)cnc2sc(C)nc12 | ligand displacement, radioligand |  | 10 µM | 4.8 |
| CCC(=O)N(C)c1ccc(Cl)c(Cl)c1 | ligand displacement, radioligand |  | 10 µM | < 10 |
| COc1ncc2nc(C)n(Cc3ncc(S(N)(=O)=O)cc3F)c2c1-c1ccccc1 | antagonist, cell-based |  | 10 µM | -7.53 |
| COc1ccc(C(=O)Nc2c(-c3cccs3)nc3ccccn23)cc1 | ligand displacement, radioligand |  | 10 µM | < 50 |
| COc1ccc(S(=O)(=O)N2CCc3ccccc3C2)cc1N1CCN(C(=O)c2ccc(F)cc2C(F)(F)F)CC1 | ligand displacement, radioligand |  | 1 µM | 5.6 |
| Brc1ccccc1-c1nnc(CSc2nnnn2-c2ccccc2)o1 | ligand displacement, radioligand |  | 10 µM | 19 |
| COc1ccc(C#CC2=C[C@H]3C[C@@]4(OC(=O)C=C24)[C@H]2CC[C@H](C(OC)OC)N32)cc1 | ligand displacement, radioligand |  | 10 µM | 47 |
| O=C1c2sc(-c3ccc(N4CCC(CO)CC4)nc3F)nc2CCN1c1cccnc1 | ligand displacement, radioligand |  | 1 µM | -7 |
| Cn1ccc2cc(-n3c(=O)[nH]c4sc5c(c4c3=O)CCCC5)ccc21 | cell-free assay, radioligand |  | 10 µM | 6 |
| CNC(=O)C[C@H](Cc1ccc(C#N)cc1)NC(=O)c1cc(-c2ccc(CN[C@H](C)c3ccc(C)cc3)o2)ccc1Cl | agonist response, antagonist | human cells | 10 µM, H1 antagonist | -5 |

A few entries again:
| Compound | test | system | setting | inhibition [%] |
| --- | --- | --- | --- | --- |
| COc1ccc(C(=O)Nc2c(-c3cccs3)nc3ccccn23)cc1 | ligand displacement, radioligand |  | 10 µM | < 50 |
| CNC(=O)C[C@H](Cc1ccc(C#N)cc1)NC(=O)c1cc(-c2ccc(CN[C@H](C)c3ccc(C)cc3)o2)ccc1Cl | agonist response, antagonist | human cells | 10 µM, H1 antagonist | -5 |
